Measured values gathered from unrelated publications.
Each numbered part is a random draw from the data of one study; scales do not carry over between parts. Positions count from the first letter of the parent shown.

Series 1
Target: Interferon regulatory factor 7, full length, phosphomimetic (IRF7, Homo sapiens, UniProt Q92985, residues 1-503, S471D/S472D/S475D/S476D/S477D/S483D/S484D/S487D)
Method: protein-binding microarray
Form: double-stranded DNA, one strand shown
Medium: in vitro
Concentration: 2200 nM top
Setting: 60-bp whole probe
Added: salmon DNA 0.4 mg/ml
Baseline: random background probes
Direction: higher = stronger binding
Endpoint: fitted relative affinity
Constant ends, left off below: GCCTAGCAC … GTCTTGATTCGCTTGACGCTGCTG
Residues (chain): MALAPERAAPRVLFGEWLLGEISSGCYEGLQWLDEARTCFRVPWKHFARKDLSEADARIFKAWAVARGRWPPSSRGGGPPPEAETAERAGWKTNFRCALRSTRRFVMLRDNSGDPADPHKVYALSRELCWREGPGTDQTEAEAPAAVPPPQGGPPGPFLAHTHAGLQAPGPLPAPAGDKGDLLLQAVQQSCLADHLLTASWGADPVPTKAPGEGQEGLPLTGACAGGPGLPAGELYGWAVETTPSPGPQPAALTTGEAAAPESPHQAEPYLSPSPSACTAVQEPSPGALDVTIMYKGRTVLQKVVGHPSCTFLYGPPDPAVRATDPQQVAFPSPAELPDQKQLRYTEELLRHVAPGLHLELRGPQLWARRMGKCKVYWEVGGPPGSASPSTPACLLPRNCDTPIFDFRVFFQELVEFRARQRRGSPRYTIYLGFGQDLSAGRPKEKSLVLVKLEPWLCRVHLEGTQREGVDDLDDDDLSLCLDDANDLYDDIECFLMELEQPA
TCATATATATAATATATAACTGTGCTA: 0.169 z-score
GACGATTTCAGTATCGAGCCGTGCTAG: 0.799 z-score
TTAGGTCTCCTTAGCCTTTAGTGCTAG: 0.0083 z-score
TTAGGTTCCGGTTTCGGATAGTGCTAG: 5.69 z-score
GACGATATCAGTATCGAGATGTGCTAG: 0.225 z-score
GTAGGACTGGGGTATCGGTTAGTGCTA: -0.777 z-score
TCATTATTAAAACTTCATACTGTGCTA: 0.016 z-score
GACGGTAACGACTTTCGGGACGTGCTA: 2.44 z-score
TTAGAACTGGGACTGGATTAGTGCTAG: -0.612 z-score
GACGATCTCCTACTGCTGACGTGCTAG: 1.1 z-score
GACGATATCGGGTATCGGGACGTGCTA: -0.0593 z-score
GACGGACTGGACACTGGGGAGGTGCTA: -0.819 z-score
CATCATTGCCTATTTTTCACCGTGCTA: 1.7 z-score
ACTAGTGTTTTTCTCCTATTGTGCTAG: 1.61 z-score
TTAGGTATCGACTATTGGTTAGTGCTA: -0.0105 z-score
GACGATATCGGGTGTCGAGACGTGCTA: 0.0614 z-score
TCAGATCTCAGTTTCGATTAGTGCTAG: 5.82 z-score
TCATATATACTATATGCAACTGTGCTA: 0.694 z-score
GTGTATATACTATATGCATGTGTGCTA: 0.831 z-score

Series 2
Target: CCNF, cyclin fold, Cln2 fusion (human)
Method: yeast growth competition, sequencing
Medium: yeast
Setting: strong parent motif
Baseline: not given
Direction: higher = stronger binding
Endpoint: normalised enrichment score
Starting sequence: REV3L docking peptide (human); PPVIIKYIIINRF
PPVIIAYIIINRF [K6A]: 0.138
PPVAIKYIIINRF [I4A]: 0.64
PAVIIKYIIINRF [P2A]: 1.77
PPAIIKYIIINRF [V3A]: 1.59
PPVIIKYIIINAF [R12A]: 1.26
APVIIKYIIINRF [P1A]: 0.905
PPVIIKYAIINRF [I8A]: 1.03

Series 3
Target: MAFG, bZIP domain (human)
Method: DHFR protein complementation
Medium: yeast
Setting: single substitutions, most at no-binding floor
Baseline: wild-type JUN-FOS pair
Direction: higher = stronger binding
Endpoint: binding fitness
Starting sequence: JUN, bZIP domain (human); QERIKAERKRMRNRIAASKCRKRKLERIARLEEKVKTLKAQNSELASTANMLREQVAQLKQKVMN; partner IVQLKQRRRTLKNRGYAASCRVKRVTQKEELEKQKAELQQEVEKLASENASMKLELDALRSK
L52A: -1.56 natural log
R53P: -1.47 natural log
I28D: -1.32 natural log
L52P: -1.54 natural log
N42Q: -1.38 natural log
L31T: -1.53 natural log
K36Q: -1.21 natural log
N42S: -1.46 natural log
A40W: -1.55 natural log
Q55L: -1.48 natural log
T48A: -1.37 natural log
N42D: -1.61 natural log
A29C: -1.49 natural log
N42H: -1.32 natural log
L45M: -1.46 natural log
L31Q: -1.37 natural log
A57N: -1.06 natural log
E33V: -1.57 natural log
A40E: -1.45 natural log
E54P: -1.44 natural log
L38S: -1.51 natural log
R53K: -1.5 natural log
V35C: -1.54 natural log
A57G: -1.39 natural log
E32H: -1.45 natural log

Single results of other studies
PhoQ, residues 284 288 289 292 302 303 TYGVAM
fold induction (PhoP, residues 12 14 15 18 19 NYFRM (Escherichia coli, UniProt P23836); Sort-seq, refers to: YFP reporter; E. coli; PhoQ-PhoP variant library, added: 10 µM Mg2+; baseline: high Mg2+ state, higher = stronger signaling): 10.7

A few entries again (series 3):
N42H: -1.32 natural log
L45M: -1.46 natural log
L31Q: -1.37 natural log
A57N: -1.06 natural log
E33V: -1.57 natural log
A40E: -1.45 natural log
E54P: -1.44 natural log
